Measurements of several laboratories.
Every numbered part comes from another study and shows a few of its results, in no order.

Block 1
Target: Histone acetyltransferase KAT6A, both winged helices, GST fusion (KAT6A, Homo sapiens, UniProt Q92794, residues 1-181)
Technique: protein binding microarray
Form: double-stranded DNA, one strand shown
Medium: in vitro
Tested at: not given
Notes: 8-mer, flanks averaged, mean of 2 arrays, mostly near background
Relative to: not given
Reading: higher = stronger binding
Construct (chain): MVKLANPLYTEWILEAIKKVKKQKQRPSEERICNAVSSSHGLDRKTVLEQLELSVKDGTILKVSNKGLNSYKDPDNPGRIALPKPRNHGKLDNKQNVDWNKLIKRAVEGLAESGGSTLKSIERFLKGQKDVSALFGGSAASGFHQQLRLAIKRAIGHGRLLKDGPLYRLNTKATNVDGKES
Sequence | E-score
GGTCGATA | -0.0231
AACTCGAT | -0.142
CGTCGTAG | 0.023
CAGGATCG | -0.0714
CCACGCGA | 0.113
CGTGGTCC | 0.0472
TCGGTTCA | 0.104
CAGAAGGA | -0.0809
CTCACATC | -0.0804
AGATAACT | -0.108

Block 2
Target: Sal-like protein 4, full length isoform A (SALL4, Homo sapiens, UniProt Q9UJQ4, residues 1-1053)
Chain of UniProt Q9UJQ4 (whole entry, looked up): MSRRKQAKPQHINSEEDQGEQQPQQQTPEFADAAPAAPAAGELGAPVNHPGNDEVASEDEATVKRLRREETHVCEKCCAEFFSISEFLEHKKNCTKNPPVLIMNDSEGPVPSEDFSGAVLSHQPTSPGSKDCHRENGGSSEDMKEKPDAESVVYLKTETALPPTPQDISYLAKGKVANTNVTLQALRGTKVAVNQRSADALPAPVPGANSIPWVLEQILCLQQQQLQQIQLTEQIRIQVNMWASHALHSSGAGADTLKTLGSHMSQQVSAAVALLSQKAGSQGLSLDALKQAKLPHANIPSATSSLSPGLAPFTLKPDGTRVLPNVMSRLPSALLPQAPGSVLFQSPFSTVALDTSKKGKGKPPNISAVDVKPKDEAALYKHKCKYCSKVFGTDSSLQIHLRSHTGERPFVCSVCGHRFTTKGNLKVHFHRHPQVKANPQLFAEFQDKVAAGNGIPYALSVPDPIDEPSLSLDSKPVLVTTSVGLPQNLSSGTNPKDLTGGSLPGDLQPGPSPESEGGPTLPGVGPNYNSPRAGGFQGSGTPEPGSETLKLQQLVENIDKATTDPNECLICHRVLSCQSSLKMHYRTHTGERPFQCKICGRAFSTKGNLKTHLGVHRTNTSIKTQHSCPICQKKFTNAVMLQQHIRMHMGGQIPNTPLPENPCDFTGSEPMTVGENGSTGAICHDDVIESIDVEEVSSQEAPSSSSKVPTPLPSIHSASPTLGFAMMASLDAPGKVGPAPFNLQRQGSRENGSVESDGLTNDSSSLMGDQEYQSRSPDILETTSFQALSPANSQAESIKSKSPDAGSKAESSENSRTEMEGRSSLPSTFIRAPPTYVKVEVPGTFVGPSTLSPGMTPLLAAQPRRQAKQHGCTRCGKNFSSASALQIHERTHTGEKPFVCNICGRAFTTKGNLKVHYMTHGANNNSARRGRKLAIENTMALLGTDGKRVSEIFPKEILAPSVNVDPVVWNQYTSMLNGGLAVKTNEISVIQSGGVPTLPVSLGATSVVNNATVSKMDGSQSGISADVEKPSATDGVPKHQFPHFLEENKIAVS
Technique: universal PBM
Form: double-stranded DNA, one strand shown
Medium: in vitro
Tested at: 600 nM
Notes: 8-mer, flanks averaged, mean of replicates
Reading: higher = stronger binding
Sequence | E-score
CACCGAAC | -0.192
AACCCCTG | -0.244
GGCGAAAA | 0.0225
CGGCCTAG | -0.261
GCGCCGAA | -0.18
TCACAAGA | 0.0193
TATGGTGA | 0.13

Block 3
Target: Interferon regulatory factor 3, full length, phosphomimetic (IRF3, Homo sapiens, UniProt Q14653, residues 1-427, S386D/S396D/S398D/S402D/T404D/S405D)
Technique: protein-binding microarray
Form: double-stranded DNA, one strand shown
Medium: in vitro
Tested at: 2540 nM top
Notes: 60-bp whole probe
With: salmon DNA 0.4 mg/ml
Relative to: random background probes
Reading: higher = stronger binding
Constant ends, left off below: GCCTAGCAC … GTCTTGATTCGCTTGACGCTGCTG
Target sequence (chain): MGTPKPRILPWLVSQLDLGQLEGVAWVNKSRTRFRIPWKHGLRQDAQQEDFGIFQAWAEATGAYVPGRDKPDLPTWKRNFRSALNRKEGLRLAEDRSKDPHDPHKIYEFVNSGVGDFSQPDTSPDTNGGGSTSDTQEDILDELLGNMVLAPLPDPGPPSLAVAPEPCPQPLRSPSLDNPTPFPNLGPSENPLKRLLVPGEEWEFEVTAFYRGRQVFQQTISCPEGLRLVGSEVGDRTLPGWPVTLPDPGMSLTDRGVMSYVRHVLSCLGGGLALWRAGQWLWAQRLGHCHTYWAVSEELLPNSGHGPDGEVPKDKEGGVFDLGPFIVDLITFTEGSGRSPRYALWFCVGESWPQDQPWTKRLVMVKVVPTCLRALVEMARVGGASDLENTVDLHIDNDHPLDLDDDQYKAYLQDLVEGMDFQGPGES
Sequence | fitted relative affinity
CACACCCGGCTCCTCTGCCAGTGCTAG | -0.0239 z-score
TTAGGTCTGCTTATCCTTTAGTGCTAG | 0.0465 z-score
TCACTCCTCTTTTTTTGACTGTGCTAG | 1.12 z-score
AACGGTATCGGGTTTCGGGACGTGCTA | 3.05 z-score
GACGGTTCGCTTTTCCTGACGTGCTAG | 2.49 z-score
GACGATTTCAGTTCCGAGATGTGCTAG | 3 z-score

Single results of other studies
Substance | target | assay | system | conditions | scale | endpoint | result
PhoQ, residues 284 288 289 292 302 303 TLSLKA | PhoP, residues 12 14 15 18 19 MHTVL (Escherichia coli, UniProt P23836) | Sort-seq, measured: YFP reporter | E. coli | PhoQ-PhoP variant library, with: 10 µM Mg2+ | relative to: high Mg2+ state, higher = stronger signaling | fold induction | 2.12

Some of these lines once more (block 3):
Sequence | fitted relative affinity
TCACTCCTCTTTTTTTGACTGTGCTAG | 1.12 z-score
AACGGTATCGGGTTTCGGGACGTGCTA | 3.05 z-score
GACGGTTCGCTTTTCCTGACGTGCTAG | 2.49 z-score
